Results of several laboratories.
Protocols differ between the studies behind these lines. Numbers after ± are the reported error.

The binding enthalpy of `CC(C)C[C@H](NC(=O)[C@H](CO)NC(=O)CNC(=O)[C@H](CCC(=O)O)NC(=O)[C@H](CO)NC(=O)[C@H](CS)NC(=O)[C@@H]1CCCN1C(=O)[C@H](CO)NC(=O)[C@H](CO)NC(=O)[C@@H](NC(=O)[C@H](CC(N)=O)NC(=O)[C@H](Cc1ccccc1)NC(=O)[C@@H](NC(=O)[C@H](Cc1ccccc1)NC(=O)[C@H](C)NC(=O)[C@H](Cc1c[nH]cn1)NC(=O)[C@@H]1CCCN1C(=O)[C@@H](NC(=O)[C@H](COP(=O)(O)O)NC(=O)[C@H](Cc1ccc(O)cc1)NC(=O)[C@H](CCCNC(=N)N)NC(=O)[C@H](Cc1c[nH]cn1)NC(=O)[C@@H](N)CCC(N)=O)[C@@H](C)O)[C@@H](C)O)[C@@H](C)O)C(=O)N[C@@H](CO)C(=O)N[C@@H](CCC(N)=O)C(=O)N[C@@H](CCCNC(=N)N)C(=O)N[C@@H](CCC(N)=O)C(=O)N[C@@H](CCCNC(=N)N)C(=O)N[C@@H](CO)C(=O)N[C@H](C(=O)N[C@@H](COP(=O)(O)O)C(=O)N[C@H](C(=O)N1CCC[C@H]1C(=O)N[C@@H](CC(N)=O)C(=O)N[C@H](C(=O)N[C@@H](Cc1c[nH]cn1)C(N)=O)C(C)C)[C@@H](C)O)[C@@H](C)O` is reported as 66 ± 1 kJ/mol (14-3-3 protein sigma (SFN, Homo sapiens, UniProt P31947); ITC; concentration not given, pH 7.4, 25 °C, exothermic, sign omitted, with: protein 50 µM).
Under “binding free energy”, `O=C(O)c1cccc(C(=O)O)n1` is recorded as -15.4 kJ/mol (racE (Bacillus subtilis, UniProt P94556); enzyme activity, inhibitor).
For `COc1cccc(C(=O)Nc2nnc(S(=O)(=O)N3CCOCC3)s2)c1`, the efficacy was 47% (GPR32 (Homo sapiens, UniProt O75388); β-arrestin recruitment, agonist, PathHunter; CHO cells expressing GPR32; concentration not given; baseline: vehicle).
`CC(C)[C@H](NC(=O)[C@H](CCCNC(=N)N)NC(=O)[C@@H](NC(=O)[C@H](CCC(N)=O)NC(=O)[C@H](CCC(N)=O)NC(=O)[C@@H](NC(=O)[C@H](Cc1c[nH]c2ccccc12)NC(=O)[C@H]1CCCN1C(=O)[C@@H]1CCCN1C(=O)[C@H](Cc1ccccc1)NC(=O)[C@H](CO)NC(=O)CNC(=O)[C@H](CCCNC(=N)N)NC(=O)[C@H](CCCNC(=N)N)NC(=O)[C@H](CCCNC(=N)N)NC(=O)[C@H](CCCNC(=N)N)NC(=O)[C@H](CCCNC(=N)N)NC(=O)[C@@H](N)CCCNC(=N)N)C(C)C)[C@@H](C)O)C(=O)O` gave a kon of 1.83e+06 M⁻¹ s⁻¹ (Disks large homolog 4, PDZ3 domain (Homo sapiens, UniProt P78352); binding, surface plasmon resonance; pH 7.5, 25 °C).
With `COc1cc2nc(N3CCN(C(=O)c4ccco4)CC3)nc(N)c2cc1OC` the remaining activity was 13.3% (Caspase-4 (CASP4, Homo sapiens, UniProt P49662); 33 µM, with: LEHD substrate; baseline: solvent control).
The remaining activity of `CSc1nc2c([nH]1)c(=O)n(C)c(=O)n2C` is reported as 119% (Androgen receptor (AR, Homo sapiens, UniProt P10275); reporter gene, antagonist, PSA-luciferase; HeLa-A6; 10 µM, 24 h, with: 5 nM dihydrotestosterone; baseline: maximal activity).
`Nc1nc2c(ncn2[C@@H]2O[C@@H]3COP(=O)(O)O[C@H]3[C@H]2O)c(=O)[nH]1` — result for “relative maximal current”: 0.09 ± 0.06 (Cyclic nucleotide-gated channel alpha-2 (Cnga2, Rattus norvegicus, UniProt Q00195, C460W/del61-90/E583M); agonist, inside-out patch clamp; -50 mV; baseline: compound over cAMP).
The koff of `CSCC[C@H](NC(=O)[C@H](CC(C)C)NC(=O)[C@H](CCCCN)NC(=O)[C@H](CCCCN)NC(=O)[C@H](Cc1c[nH]cn1)NC(=O)[C@H](CCCNC(=N)N)NC(=O)[C@H](CO)NC(=O)[C@@H](NC(=O)[C@H](CO)NC(=O)[C@H](CCC(N)=O)NC(=O)CNC(=O)[C@H](CCCCN)NC(=O)[C@H](CCCCN)NC(=O)[C@H](CO)NC(=O)[C@H](CCCCN)NC(=O)[C@H](CC(C)C)NC(=O)[C@H](Cc1c[nH]cn1)NC(=O)[C@H](CO)NC(=O)[C@H](Cc1ccc(O)cc1)NC(C)=O)[C@@H](C)O)C(=O)N[C@@H](Cc1ccccc1)C(=O)N[C@@H](CCCCN)C(=O)N[C@H](C(=O)N[C@@H](CCC(=O)O)C(N)=O)[C@@H](C)O` is reported as 800 ± 160 s⁻¹ (Protein S100-B (Homo sapiens, UniProt P04271); binding, NMR line shape, fixed Kd; 35 °C, low salt).
With `H-ARPCA-NH2 (C-amide)` the ID50 was 2000 µM (Fibroblast growth factor 2, with pentraxin 3 (Homo sapiens, UniProt P09038); binding to PTX3, competitor, surface plasmon resonance; peptide; with: 150 nM free FGF2).
The band density of `COC(=O)CCC(C(=O)C=Cc1ccc(O)c(OC(F)(F)F)c1)C(=O)C=Cc1ccco1` (stereo not shown) is reported as 1430 ± 285% (Amyloid-beta precursor protein (APP, Homo sapiens, UniProt P05067); Aβ aggregation, SDS-PAGE western blot, item: Aβ1-42 75-200 kDa band; 30 µM, 24 h, 37 °C, with: Aβ1-42 10 µM; baseline: DMSO).

For quick reference, copied from above:
`Nc1nc2c(ncn2[C@@H]2O[C@@H]3COP(=O)(O)O[C@H]3[C@H]2O)c(=O)[nH]1` — result for “relative maximal current”: 0.09 ± 0.06 (Cyclic nucleotide-gated channel alpha-2 (Cnga2, Rattus norvegicus, UniProt Q00195, C460W/del61-90/E583M); agonist, inside-out patch clamp; -50 mV; baseline: compound over cAMP).
